Assay results from different studies.
Numbered parts are unrelated; each lists some results of a single study.
UniProt Q06187, sequence (whole entry, looked up): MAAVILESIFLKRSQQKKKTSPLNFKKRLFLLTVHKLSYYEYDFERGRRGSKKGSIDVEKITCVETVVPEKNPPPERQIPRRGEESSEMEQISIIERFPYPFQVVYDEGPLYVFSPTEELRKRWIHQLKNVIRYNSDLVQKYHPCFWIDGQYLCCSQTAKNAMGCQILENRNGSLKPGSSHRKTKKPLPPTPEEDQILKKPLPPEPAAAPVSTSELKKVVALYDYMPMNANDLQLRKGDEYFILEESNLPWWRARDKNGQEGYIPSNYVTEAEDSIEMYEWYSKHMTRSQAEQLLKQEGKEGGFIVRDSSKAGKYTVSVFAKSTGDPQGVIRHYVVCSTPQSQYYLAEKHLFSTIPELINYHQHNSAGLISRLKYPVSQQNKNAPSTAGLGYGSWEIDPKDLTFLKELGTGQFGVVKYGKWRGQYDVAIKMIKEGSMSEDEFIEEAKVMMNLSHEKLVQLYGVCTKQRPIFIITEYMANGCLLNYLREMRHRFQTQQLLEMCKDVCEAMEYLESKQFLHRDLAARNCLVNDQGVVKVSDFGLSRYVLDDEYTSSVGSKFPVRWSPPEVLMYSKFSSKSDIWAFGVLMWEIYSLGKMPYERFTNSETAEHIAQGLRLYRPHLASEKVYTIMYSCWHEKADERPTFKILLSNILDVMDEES
UniProt P07947, sequence (whole entry, looked up): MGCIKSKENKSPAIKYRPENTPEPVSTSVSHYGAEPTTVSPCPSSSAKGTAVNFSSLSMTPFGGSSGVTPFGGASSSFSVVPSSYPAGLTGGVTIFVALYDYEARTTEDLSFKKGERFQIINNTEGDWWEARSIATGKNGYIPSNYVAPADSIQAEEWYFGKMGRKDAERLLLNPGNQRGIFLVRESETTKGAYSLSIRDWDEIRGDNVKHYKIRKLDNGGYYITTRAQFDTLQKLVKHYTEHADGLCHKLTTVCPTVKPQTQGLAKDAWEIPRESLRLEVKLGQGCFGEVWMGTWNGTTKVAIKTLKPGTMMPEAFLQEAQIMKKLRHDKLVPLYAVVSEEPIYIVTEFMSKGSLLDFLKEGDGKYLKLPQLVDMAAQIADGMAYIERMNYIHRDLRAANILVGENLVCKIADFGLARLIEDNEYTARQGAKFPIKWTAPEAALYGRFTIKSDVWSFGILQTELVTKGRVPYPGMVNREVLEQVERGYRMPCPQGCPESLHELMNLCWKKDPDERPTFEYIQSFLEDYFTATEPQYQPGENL
UniProt Q13131, sequence (whole entry, looked up): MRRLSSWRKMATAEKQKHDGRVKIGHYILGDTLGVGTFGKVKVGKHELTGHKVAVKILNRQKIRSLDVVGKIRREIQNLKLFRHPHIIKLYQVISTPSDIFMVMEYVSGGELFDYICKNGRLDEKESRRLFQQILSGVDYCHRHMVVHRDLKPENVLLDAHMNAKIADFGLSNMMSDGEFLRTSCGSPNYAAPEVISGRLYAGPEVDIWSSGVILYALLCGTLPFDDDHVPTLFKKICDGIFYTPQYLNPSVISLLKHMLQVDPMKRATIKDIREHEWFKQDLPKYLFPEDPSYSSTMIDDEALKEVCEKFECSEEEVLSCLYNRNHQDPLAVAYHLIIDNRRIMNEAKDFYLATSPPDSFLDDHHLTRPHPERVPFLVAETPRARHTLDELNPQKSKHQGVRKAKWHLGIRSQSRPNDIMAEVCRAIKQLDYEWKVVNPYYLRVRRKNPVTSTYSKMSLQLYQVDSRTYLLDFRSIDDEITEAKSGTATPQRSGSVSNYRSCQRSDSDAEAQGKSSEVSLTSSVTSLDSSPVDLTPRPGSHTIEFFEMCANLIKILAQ
UniProt O00750, sequence (whole entry, looked up): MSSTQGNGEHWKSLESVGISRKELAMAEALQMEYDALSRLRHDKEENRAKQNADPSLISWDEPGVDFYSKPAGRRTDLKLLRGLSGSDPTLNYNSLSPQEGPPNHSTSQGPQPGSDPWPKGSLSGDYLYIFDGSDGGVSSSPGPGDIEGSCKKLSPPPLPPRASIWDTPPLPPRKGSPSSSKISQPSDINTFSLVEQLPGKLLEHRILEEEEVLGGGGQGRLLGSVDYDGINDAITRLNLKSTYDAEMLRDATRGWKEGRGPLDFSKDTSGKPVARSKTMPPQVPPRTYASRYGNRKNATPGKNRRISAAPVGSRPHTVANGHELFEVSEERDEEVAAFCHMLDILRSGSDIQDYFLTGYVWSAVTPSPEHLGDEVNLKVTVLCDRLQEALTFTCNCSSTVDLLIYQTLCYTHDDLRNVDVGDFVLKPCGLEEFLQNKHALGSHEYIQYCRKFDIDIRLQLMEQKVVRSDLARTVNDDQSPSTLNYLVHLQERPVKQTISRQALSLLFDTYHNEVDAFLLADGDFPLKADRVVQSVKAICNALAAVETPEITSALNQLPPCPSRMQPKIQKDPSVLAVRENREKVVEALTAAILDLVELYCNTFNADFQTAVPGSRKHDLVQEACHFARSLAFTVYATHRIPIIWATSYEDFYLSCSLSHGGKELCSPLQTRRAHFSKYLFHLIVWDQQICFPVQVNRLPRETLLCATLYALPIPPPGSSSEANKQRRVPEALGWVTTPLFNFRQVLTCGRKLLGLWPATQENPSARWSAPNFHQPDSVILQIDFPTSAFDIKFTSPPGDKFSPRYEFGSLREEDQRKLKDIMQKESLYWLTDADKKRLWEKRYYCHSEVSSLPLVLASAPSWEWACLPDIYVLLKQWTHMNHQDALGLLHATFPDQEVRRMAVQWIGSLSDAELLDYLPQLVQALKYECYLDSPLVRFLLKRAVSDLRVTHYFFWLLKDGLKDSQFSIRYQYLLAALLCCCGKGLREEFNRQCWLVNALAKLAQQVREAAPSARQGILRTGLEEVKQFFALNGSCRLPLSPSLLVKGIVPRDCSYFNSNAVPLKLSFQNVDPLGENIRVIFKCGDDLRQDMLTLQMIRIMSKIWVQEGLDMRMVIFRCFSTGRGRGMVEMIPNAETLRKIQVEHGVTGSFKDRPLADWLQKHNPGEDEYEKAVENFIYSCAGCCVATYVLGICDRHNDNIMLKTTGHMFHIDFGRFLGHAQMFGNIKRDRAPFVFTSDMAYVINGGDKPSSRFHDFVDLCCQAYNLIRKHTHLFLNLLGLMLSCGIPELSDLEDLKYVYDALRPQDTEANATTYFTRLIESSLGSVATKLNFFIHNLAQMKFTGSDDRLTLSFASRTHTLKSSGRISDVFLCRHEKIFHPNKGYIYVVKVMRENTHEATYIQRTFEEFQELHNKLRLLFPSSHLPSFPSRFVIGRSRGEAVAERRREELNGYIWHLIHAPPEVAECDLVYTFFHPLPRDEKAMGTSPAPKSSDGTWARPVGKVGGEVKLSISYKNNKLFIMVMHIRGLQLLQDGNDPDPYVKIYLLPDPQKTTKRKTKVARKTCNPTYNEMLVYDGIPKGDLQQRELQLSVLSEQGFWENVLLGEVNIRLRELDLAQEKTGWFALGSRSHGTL
UniProt Q9UBF8, sequence (whole entry, looked up): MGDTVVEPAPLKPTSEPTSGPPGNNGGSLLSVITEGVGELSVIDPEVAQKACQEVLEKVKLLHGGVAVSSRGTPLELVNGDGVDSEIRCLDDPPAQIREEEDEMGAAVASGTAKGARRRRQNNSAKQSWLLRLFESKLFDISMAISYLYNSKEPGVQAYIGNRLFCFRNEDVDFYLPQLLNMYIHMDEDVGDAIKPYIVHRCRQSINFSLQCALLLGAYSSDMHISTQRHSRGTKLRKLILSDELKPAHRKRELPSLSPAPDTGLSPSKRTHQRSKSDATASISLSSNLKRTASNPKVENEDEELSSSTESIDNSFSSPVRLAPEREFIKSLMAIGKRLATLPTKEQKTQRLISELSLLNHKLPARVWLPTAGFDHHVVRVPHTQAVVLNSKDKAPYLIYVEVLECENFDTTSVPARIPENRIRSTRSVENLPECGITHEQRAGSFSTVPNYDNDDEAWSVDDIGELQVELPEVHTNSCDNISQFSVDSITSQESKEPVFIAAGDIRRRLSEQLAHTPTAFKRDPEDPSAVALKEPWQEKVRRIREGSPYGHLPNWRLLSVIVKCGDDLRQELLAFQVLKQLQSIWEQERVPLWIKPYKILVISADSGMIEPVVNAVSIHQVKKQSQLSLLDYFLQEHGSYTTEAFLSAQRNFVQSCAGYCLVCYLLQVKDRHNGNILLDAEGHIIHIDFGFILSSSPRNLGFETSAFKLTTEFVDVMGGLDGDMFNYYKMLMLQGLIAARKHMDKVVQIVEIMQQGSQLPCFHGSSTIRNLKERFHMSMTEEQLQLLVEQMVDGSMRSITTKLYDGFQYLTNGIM

Study 1
SMILES: Cc1cc(C)c(-n2ccn3nc(-c4cccnc4)cc23)cc1NC(=O)c1cc(C#N)cc(S(F)(F)(F)(F)F)c1
Read-out: cell-free assay
Method: competition with immobilised ligand
Concentration: 0.1 µM
Quantity: remaining binding
Cyclin-dependent kinase 9 (CDK9, Homo sapiens, UniProt P50750): 85.5%
Tyrosine-protein kinase Yes (YES1, Homo sapiens, UniProt P07947): 70.7%
Mitogen-activated protein kinase kinase kinase 10 (MAP3K10, Homo sapiens, UniProt Q02779): 100%
SNF-related serine/threonine-protein kinase (SNRK, Homo sapiens, UniProt Q9NRH2): 100%
Tyrosine-protein kinase FRK (FRK, Homo sapiens, UniProt P42685): 59.1%
Serine/threonine-protein kinase PLK1 (PLK1, Homo sapiens, UniProt P53350): 100%
Protein-tyrosine kinase 2-beta (PTK2B, Homo sapiens, UniProt Q14289): 81.4%
Tyrosine-protein kinase SYK (SYK, Homo sapiens, UniProt P43405): 100%
Tyrosine-protein kinase ABL1, phosphorylated (ABL1, Homo sapiens, UniProt P00519, Q252H): 72.9%
Serine/threonine-protein kinase PLK2 (PLK2, Homo sapiens, UniProt Q9NYY3): 83.3%
Megakaryocyte-associated tyrosine-protein kinase (MATK, Homo sapiens, UniProt P42679): 80.4%
Phosphatidylinositol 4-phosphate 3-kinase C2 domain-containing subunit beta (PIK3C2B, Homo sapiens, UniProt O00750): 93.4%
NUAK family SNF1-like kinase 1 (NUAK1, Homo sapiens, UniProt O60285): 100%
5'-AMP-activated protein kinase catalytic subunit alpha-1 (PRKAA1, Homo sapiens, UniProt Q13131): 77%
Tyrosine-protein kinase BTK (BTK, Homo sapiens, UniProt Q06187): 100%
Phosphatidylinositol 4-kinase beta (PI4KB, Homo sapiens, UniProt Q9UBF8): 64.7%

Study 2
Target: Fragile X messenger ribonucleoprotein 1, C-terminal low-complexity region (Fmr1, Mus musculus, UniProt P35922)
Method: RNA Bind-n-Seq
Form: RNA
Medium: in vitro
Concentration: 200 nM
Notes: whole 134-nt RNA, ends assumed
Together with: 150 mM KCl
Baseline: input library
Direction: higher = stronger binding
Quantity: log2 enrichment
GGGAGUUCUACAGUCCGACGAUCUGGGAGGUGGAUUUUGUUUAUUUUUUUAGCUCAUUUCCAGGGGUGGGAAUUUUUUUUUAAGAUGUGUCAUGAAUAAAGUUGUUUUUGAAAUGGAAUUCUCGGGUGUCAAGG: 0.389
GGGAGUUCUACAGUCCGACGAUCGUCCUGUGCUACACAUCGUAUGUACCGAAUCGGGGAGGGGUUUUUGGGGAAAAAGGGGAAAGUAUUAUGUUACGCCGUUCGGAUCUGCACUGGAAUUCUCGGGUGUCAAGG: 0.724
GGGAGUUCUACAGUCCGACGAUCUCCUGUGCUACACAUCGUAUGUACCGAAUCGGGGAAAAAGGGGAAAAAGGGGAAAAAGGAAAGUAUUAUGUUACGCCGUUCGGAUCUGCAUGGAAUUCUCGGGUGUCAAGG: -0.0712
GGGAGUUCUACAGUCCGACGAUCCAAGUCCUGUGCUACACAUCGUAUGUACCGAAUCGGGGAAAGGGAAAGGAAAGGGGAAAGUAUUAUGUUACGCCGUUCGGAUCUGCACUUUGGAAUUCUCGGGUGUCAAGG: 0.426
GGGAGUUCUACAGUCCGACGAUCAAGUCCUGUGCUACACAUCGUAUGUACCGAAUCGGGUUUUUGGGUGGGUUUUUGGGAAAGUAUUAUGUUACGCCGUUCGGAUCUGCACUUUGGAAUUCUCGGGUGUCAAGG: 0.919
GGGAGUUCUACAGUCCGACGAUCAAGUCCUGUGCUACACAUCGUAUGUACCGAAUCGGGAAAGGGGAAAGGGGAAAGGGAAAGUAUUAUGUUACGCCGUUCGGAUCUGCACUUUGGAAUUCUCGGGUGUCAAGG: 0.217
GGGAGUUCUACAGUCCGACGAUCCACAGACAACACGCACCCACACAGACACAGAGGGAAGGGGUUGGGCUGGGGACAGGGUGCACAGCAGGGCGGGGUAGGACCCCAGCCCCUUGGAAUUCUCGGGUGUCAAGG: 1.26
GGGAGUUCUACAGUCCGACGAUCUGGGAGGUGGAUUUUGUUUAUUUUUUUAGCUCAUUUCCAGGGGUGGGAAUUUUUUUUUAAUAUGAGUCAUGAAUAAAGUUGUUUUUGAAAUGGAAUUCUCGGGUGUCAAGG: 0.0548

Study 3
Target: Dual specificity tyrosine-phosphorylation-regulated kinase 4 (DYRK4, Homo sapiens, UniProt Q9NR20)
UniProt Q9NR20, sequence (whole entry, looked up): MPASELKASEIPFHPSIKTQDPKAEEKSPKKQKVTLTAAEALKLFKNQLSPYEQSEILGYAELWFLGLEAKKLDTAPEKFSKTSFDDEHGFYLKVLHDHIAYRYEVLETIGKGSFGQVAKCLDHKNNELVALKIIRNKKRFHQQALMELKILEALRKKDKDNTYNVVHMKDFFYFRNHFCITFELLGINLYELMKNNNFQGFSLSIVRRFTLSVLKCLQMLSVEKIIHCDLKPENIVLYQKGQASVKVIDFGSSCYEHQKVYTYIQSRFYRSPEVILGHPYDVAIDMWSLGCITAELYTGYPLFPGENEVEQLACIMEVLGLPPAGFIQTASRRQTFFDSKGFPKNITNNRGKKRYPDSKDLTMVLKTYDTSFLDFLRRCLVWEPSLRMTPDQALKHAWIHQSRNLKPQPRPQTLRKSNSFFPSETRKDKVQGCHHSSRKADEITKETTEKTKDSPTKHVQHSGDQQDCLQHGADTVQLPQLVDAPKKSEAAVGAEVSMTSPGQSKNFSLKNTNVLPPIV
Read-out: enzyme activity
Action: inhibitor
Concentration: 0.5 µM
Baseline: control
Quantity: remaining activity
Cc1cccc(-c2[nH]c(C(C)(C)C)nc2-c2ccc3c(c2)OCO3)n1: 89.7%
COc1cc2ncnc(Nc3ccc(F)c(Cl)c3)c2cc1OCCCN1CCOCC1: 105%
CCOC(=O)c1c(C)[nH]c(/C=C2\C(=O)Nc3ccccc32)c1C: 99.6%
NCCNc1ncc(C(N)=O)c(Nc2cccc(C(F)(F)F)c2)n1: 98.2%
O=C(Nc1cccc(Nc2cc(Nc3cccc(C(F)(F)F)c3)ncn2)c1)C1CC1: 98%
Cn1c2ccccc2c2c3c(c4c5ccccc5n(CCC#N)c4c21)CNC3=O: 95.7%
O=C(O)c1ccc2c3c1cccc3c(=O)n1c3ccccc3nc21: 95.8%
O=C1NC(=O)C(c2cn(CCCO)c3ncccc23)=C1c1cnccn1: 98.4%
Cc1nc(-c2ccccc2)c(-c2ccncc2)o1: 91.2%
COc1ccc(OC)c2c(=S)c3ccccc3[nH]c12: 107%
CN(C)c1ccc(C=C2C(=O)Nc3ccccc32)cc1: 94.8%
COc1cc2ncnc(Nc3ccc(Oc4ccccc4)cc3)c2cc1OC: 97.3%
O=C(CCCc1ccc(-c2ccccc2F)cc1)Nc1ccc(O)cc1: 97.4%
C#Cc1cccc(Nc2ncnc3cc(OCCOC)c(OCCOC)cc23)c1: 100%

Further values, each from its own experiment
Method: cross-linking MS
GTF3C1 (Homo sapiens, UniProt Q12789) — cross-linked residues (MCM8 (Homo sapiens, UniProt Q9UJA3); cell fractions; together with: DSSO): K1636 to K79
COPS7B (Homo sapiens, UniProt Q9H9Q2) — cross-linked residues (COPS3 (Homo sapiens, UniProt Q9UNS2); cell fractions; together with: DHSO): E212 to E396
IGF2BP3 (Homo sapiens, UniProt O00425) — interaction screen (IGF2BP1 (Homo sapiens, UniProt Q9NZI8); hits only): cross-linked
FLNA (Homo sapiens, UniProt P21333) — cross-linked residues (AFG2A (Homo sapiens, UniProt Q8NB90); cell fractions; together with: DSSO): K771 to Y184

Excerpt of the above (study 2):
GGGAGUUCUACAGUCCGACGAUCUGGGAGGUGGAUUUUGUUUAUUUUUUUAGCUCAUUUCCAGGGGUGGGAAUUUUUUUUUAAUAUGAGUCAUGAAUAAAGUUGUUUUUGAAAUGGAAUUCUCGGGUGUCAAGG: 0.0548
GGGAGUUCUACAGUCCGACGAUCAAGUCCUGUGCUACACAUCGUAUGUACCGAAUCGGGUUUUUGGGUGGGUUUUUGGGAAAGUAUUAUGUUACGCCGUUCGGAUCUGCACUUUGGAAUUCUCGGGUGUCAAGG: 0.919
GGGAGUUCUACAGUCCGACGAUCGUCCUGUGCUACACAUCGUAUGUACCGAAUCGGGGAGGGGUUUUUGGGGAAAAAGGGGAAAGUAUUAUGUUACGCCGUUCGGAUCUGCACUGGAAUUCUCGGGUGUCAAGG: 0.724
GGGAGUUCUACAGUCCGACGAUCCAAGUCCUGUGCUACACAUCGUAUGUACCGAAUCGGGGAAAGGGAAAGGAAAGGGGAAAGUAUUAUGUUACGCCGUUCGGAUCUGCACUUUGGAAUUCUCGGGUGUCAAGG: 0.426
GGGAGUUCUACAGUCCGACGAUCAAGUCCUGUGCUACACAUCGUAUGUACCGAAUCGGGAAAGGGGAAAGGGGAAAGGGAAAGUAUUAUGUUACGCCGUUCGGAUCUGCACUUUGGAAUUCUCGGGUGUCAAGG: 0.217
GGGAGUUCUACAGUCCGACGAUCUGGGAGGUGGAUUUUGUUUAUUUUUUUAGCUCAUUUCCAGGGGUGGGAAUUUUUUUUUAAGAUGUGUCAUGAAUAAAGUUGUUUUUGAAAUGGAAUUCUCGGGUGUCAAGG: 0.389
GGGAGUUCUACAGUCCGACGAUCUCCUGUGCUACACAUCGUAUGUACCGAAUCGGGGAAAAAGGGGAAAAAGGGGAAAAAGGAAAGUAUUAUGUUACGCCGUUCGGAUCUGCAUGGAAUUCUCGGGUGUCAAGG: -0.0712
